Assay results from different studies.
Each numbered part is a random draw from the data of one study; scales do not carry over between parts.

Sample 1 — method: RNA Bind-n-Seq; molecule type: RNA; medium: in vitro; concentration: 365 nM; relative to: no-protein control; direction: higher = stronger binding
Target: RNA binding protein fox-1 homolog 2, RRM domain, GST-SBP tag (RBFOX2, Homo sapiens, UniProt O43251-10, residues 100-194)
Notes: natural RNA segment, single round, ends assumed
Residues (chain): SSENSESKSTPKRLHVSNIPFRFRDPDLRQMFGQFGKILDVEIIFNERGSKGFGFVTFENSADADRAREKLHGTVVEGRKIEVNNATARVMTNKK
`GGGAGUUCUACAGUCCGACGAUCGAGCGUGGGGCCCCCAGGCCCCACCAGCACCGUCCUCCCCUAAUGAGGGGCCCUGCCGAGGCAUCAGCUGCUCUGCUCAGUUAGUUUUUAUUCCCGGGGUACCAAGCAGCUGGAAUUCUCGGGUGCCAA`: “RBNS enrichment (R)” 0.227.
Under “RBNS enrichment (R)”, `GGGAGUUCUACAGUCCGACGAUCCCCCUCCUCAUCCUGCACCCCUUCCAUCCCACCUUCCCUUUCAAUAAACAGCUGGGAUGGAUACUGACUUUGUUUCCUUUCUCCCUGGCCACUGGGGCGUGGGGAGGAGAUGGAAUUCUCGGGUGCCAA` is recorded as 0.58.
`GGGAGUUCUACAGUCCGACGAUCCUGAAUGUUGACAUGCCAGCGGGCGUGUGACCCUUCAUUUUCCCUUUCCCUUCCUUUGGACAGUGUUACAAUGAACACUUAGCAUUCUGUUUUUGGUUGAUAGUUGAGCAUGGAAUUCUCGGGUGCCAA` — result for “RBNS enrichment (R)”: 1.04.
`GGGAGUUCUACAGUCCGACGAUCUUGGCUGGGGGUGGCUGGGAAAGGCCCCUCUGGGAAAGAGACAGUUUUACUGAGUCAGAUGGUGGAAAGACAGAUGUCUCUAUACUUUCUUAACAAGCCACUCUGUCCCAUGGAAUUCUCGGGUGCCAA` — result for “RBNS enrichment (R)”: 0.245.

Sample 2 — method: protein-binding microarray; molecule type: double-stranded DNA, one strand shown; medium: in vitro; concentration: 250 nM; notes: 60-bp whole probe; with: salmon DNA 0.4 mg/ml; relative to: random background probes; direction: higher = stronger binding; all sequences stand within: GCCTAGCAC … GTCTTGATTCGCTTGACGCTGCTG
Target: Interferon regulatory factor 5, full length, phosphomimetic (IRF5, Homo sapiens, UniProt Q13568-2, residues 1-514, K96S/S451D/S453D/S456D/S462D)
`GACGGACTGCTTTTCTTGACGTGCTAG` has a log fluorescence of 0.022 z-score.
The log fluorescence of `TAAGATATCGGGTTTCGATTAGTGCTA` is reported as 7.6 z-score.
`TAAGAACTGGGGTTTCGATTAGTGCTA` gave a log fluorescence of 6.13 z-score.
For `TCAGTTTTTGCTTTCTTACTGTGCTAG`, the log fluorescence was 2.15 z-score.
For `CCCGATATGCGGTAAGGGCGCGTGCTA`, the log fluorescence was 0.0874 z-score.
With `TCAATCATTGCTTTCTCACTGTGCTAG` the log fluorescence was 1.34 z-score.

Sample 3 — method: RNA Bind-n-Seq; molecule type: RNA; medium: in vitro; concentration: 200 nM; notes: whole 134-nt RNA, ends assumed; with: 150 mM KCl; relative to: input library; direction: higher = stronger binding
Target: Fragile X messenger ribonucleoprotein 1, C-terminal low-complexity region (Fmr1, Mus musculus, UniProt P35922)
For `GGGAGUUCUACAGUCCGACGAUCUAACUUUAGAGGAGGAUCUGAUGGAUAUGGCAGUGGUCGUGGAUUUGGGGAUGGCUAUAAUGGGUAUGGAGGAGGACCUGGAGGUGGCAAUGGAAUUCUCGGGUGUCAAGG`, the log2 enrichment was 0.144.
With `GGGAGUUCUACAGUCCGACGAUCCUCAAGUCCUGUGCUACACAUCGUAUGUACCGAAUCGGGCCGGGCCGGGCCGGAAAGUAUUAUGUUACGCCGUUCGGAUCUGCACUUCCAUGGAAUUCUCGGGUGUCAAGG` the log2 enrichment was 0.0286.
For `GGGAGUUCUACAGUCCGACGAUCUGGCCCUGGUGGCAUGCGGGGAGGAAGAGGUGGCCUCAUGGAUCGUGGUGGUCCCGGUGGAAAGUUCAGAGGUGGCCGUGGUGGAGACAGUGGAAUUCUCGGGUGUCAAGG`, the log2 enrichment was -0.021.
For `GGGAGUUCUACAGUCCGACGAUCUGGGAGGUGGAUUUUGUUUAUUUUUUGAGCUCAUUUCCAGGGGUGGGAAUUUUUUUUUAAUAUGUGUCAUGAAUAAAGUUGUUUUUGAAAUGGAAUUCUCGGGUGUCAAGG`, the log2 enrichment was 0.302.

Single results of other studies
For `PhoQ, residues 284 288 289 292 302 303 SCKMEA`, the fold induction was 1.44 (PhoP, residues 12 14 15 18 19 DLLYY (Escherichia coli, UniProt P23836); Sort-seq, measured: YFP reporter; E. coli; PhoQ-PhoP variant library, with: 10 µM Mg2+; relative to: high Mg2+ state, higher = stronger signaling).

Repeated from above (sample 1):
`GGGAGUUCUACAGUCCGACGAUCUUGGCUGGGGGUGGCUGGGAAAGGCCCCUCUGGGAAAGAGACAGUUUUACUGAGUCAGAUGGUGGAAAGACAGAUGUCUCUAUACUUUCUUAACAAGCCACUCUGUCCCAUGGAAUUCUCGGGUGCCAA` — result for “RBNS enrichment (R)”: 0.245.
